Measured values pooled from the literature.
Parts stem from different laboratories: compare values within a part only.
UniProt Q99558, sequence (whole entry, looked up): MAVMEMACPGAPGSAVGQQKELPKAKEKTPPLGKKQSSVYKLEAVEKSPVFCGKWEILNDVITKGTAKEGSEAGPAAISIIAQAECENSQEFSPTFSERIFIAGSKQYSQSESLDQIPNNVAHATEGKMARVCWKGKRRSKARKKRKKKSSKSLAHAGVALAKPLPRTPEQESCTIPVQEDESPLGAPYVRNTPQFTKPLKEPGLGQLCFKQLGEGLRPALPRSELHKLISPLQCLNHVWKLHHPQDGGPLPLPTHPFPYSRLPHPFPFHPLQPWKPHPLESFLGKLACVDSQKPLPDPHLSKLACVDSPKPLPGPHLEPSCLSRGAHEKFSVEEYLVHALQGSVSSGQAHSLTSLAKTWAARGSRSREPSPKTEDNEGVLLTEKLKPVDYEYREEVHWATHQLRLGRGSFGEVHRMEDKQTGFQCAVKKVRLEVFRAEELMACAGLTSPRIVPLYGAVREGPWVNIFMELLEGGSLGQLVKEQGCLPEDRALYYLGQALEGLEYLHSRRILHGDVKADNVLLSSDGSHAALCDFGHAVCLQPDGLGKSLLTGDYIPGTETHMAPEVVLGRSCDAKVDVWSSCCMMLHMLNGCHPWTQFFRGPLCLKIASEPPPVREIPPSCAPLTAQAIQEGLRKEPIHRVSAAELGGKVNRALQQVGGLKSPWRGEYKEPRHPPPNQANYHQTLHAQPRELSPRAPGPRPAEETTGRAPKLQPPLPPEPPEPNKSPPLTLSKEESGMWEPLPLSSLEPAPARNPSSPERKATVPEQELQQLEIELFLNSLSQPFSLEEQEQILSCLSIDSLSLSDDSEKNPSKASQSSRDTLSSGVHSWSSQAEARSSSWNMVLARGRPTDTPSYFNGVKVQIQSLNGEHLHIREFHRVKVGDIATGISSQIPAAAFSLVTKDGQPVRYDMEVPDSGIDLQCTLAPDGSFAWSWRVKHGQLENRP
UniProt P29320, sequence (whole entry, looked up): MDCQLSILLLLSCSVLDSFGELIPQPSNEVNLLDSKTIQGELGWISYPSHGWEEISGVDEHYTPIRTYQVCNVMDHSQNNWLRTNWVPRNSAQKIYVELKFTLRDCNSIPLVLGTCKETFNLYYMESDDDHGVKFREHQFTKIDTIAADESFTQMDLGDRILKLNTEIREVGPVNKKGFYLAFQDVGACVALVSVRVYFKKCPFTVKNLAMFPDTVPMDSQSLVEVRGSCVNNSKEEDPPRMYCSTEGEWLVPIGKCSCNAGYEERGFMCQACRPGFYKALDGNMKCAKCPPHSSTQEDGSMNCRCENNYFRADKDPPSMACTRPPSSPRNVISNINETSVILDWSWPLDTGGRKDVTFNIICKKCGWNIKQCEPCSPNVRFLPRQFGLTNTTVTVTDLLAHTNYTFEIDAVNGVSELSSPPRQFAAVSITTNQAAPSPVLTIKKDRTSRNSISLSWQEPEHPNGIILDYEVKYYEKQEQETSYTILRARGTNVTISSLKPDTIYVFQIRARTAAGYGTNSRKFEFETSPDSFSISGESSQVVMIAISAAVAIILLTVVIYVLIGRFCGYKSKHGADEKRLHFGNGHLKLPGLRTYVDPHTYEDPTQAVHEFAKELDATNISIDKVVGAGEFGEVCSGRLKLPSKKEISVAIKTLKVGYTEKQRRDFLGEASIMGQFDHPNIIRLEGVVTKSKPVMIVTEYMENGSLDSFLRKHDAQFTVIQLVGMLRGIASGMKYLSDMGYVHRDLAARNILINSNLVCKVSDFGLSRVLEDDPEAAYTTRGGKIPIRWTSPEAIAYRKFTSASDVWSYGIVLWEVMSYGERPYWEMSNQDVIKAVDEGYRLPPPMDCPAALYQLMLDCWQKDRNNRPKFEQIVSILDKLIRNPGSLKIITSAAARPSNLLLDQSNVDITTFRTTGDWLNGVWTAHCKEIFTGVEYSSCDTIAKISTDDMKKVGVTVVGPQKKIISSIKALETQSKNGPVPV
UniProt P49841, sequence (whole entry, looked up): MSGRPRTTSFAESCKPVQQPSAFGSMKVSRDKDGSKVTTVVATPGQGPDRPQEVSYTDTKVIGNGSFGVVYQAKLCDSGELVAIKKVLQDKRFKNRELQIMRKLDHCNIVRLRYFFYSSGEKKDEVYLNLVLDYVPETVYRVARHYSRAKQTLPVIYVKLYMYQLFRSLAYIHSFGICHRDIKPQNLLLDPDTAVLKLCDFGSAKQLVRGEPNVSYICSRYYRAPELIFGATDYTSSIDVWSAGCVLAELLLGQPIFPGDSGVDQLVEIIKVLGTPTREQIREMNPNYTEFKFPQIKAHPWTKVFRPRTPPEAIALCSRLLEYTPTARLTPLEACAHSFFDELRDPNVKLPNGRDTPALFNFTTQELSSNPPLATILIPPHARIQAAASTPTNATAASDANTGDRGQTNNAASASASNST
UniProt Q13523, sequence (whole entry, looked up): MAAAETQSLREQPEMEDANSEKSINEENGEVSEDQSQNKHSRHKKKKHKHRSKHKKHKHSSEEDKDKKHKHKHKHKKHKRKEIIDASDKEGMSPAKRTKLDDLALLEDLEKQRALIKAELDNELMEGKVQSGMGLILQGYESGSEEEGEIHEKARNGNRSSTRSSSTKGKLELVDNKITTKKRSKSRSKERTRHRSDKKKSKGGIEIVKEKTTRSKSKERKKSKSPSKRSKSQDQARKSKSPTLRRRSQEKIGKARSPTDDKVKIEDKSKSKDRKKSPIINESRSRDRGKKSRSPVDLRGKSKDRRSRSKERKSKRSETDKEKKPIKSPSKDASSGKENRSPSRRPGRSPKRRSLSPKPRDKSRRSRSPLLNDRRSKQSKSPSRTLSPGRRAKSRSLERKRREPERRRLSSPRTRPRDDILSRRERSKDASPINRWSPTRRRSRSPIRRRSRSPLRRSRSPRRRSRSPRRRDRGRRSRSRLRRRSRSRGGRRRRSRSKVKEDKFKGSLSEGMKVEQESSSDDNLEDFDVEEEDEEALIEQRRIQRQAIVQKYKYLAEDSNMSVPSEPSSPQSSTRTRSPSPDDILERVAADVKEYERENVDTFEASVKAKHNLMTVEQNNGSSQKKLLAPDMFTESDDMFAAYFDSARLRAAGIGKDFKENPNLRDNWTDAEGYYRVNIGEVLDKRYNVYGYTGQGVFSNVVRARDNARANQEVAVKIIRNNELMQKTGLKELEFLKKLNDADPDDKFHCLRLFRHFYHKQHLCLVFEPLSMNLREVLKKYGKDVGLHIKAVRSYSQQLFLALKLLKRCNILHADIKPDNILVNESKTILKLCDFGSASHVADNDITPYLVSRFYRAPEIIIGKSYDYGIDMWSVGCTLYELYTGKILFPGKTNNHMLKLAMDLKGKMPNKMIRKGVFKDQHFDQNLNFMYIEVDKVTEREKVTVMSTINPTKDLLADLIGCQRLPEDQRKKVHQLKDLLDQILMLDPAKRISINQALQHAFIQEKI
UniProt P78368, sequence (whole entry, looked up): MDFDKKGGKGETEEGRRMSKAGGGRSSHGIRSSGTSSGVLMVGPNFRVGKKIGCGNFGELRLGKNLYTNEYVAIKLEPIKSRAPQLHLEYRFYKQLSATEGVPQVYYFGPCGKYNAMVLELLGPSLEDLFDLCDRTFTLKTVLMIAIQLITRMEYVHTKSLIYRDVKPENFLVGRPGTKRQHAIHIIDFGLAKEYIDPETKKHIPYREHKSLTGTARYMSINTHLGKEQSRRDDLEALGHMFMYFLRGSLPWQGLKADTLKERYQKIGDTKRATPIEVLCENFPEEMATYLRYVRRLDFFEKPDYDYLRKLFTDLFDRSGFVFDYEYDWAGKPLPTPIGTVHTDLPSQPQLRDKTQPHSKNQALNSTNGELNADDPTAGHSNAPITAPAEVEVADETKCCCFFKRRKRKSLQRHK
UniProt Q96PY6, sequence (whole entry, looked up): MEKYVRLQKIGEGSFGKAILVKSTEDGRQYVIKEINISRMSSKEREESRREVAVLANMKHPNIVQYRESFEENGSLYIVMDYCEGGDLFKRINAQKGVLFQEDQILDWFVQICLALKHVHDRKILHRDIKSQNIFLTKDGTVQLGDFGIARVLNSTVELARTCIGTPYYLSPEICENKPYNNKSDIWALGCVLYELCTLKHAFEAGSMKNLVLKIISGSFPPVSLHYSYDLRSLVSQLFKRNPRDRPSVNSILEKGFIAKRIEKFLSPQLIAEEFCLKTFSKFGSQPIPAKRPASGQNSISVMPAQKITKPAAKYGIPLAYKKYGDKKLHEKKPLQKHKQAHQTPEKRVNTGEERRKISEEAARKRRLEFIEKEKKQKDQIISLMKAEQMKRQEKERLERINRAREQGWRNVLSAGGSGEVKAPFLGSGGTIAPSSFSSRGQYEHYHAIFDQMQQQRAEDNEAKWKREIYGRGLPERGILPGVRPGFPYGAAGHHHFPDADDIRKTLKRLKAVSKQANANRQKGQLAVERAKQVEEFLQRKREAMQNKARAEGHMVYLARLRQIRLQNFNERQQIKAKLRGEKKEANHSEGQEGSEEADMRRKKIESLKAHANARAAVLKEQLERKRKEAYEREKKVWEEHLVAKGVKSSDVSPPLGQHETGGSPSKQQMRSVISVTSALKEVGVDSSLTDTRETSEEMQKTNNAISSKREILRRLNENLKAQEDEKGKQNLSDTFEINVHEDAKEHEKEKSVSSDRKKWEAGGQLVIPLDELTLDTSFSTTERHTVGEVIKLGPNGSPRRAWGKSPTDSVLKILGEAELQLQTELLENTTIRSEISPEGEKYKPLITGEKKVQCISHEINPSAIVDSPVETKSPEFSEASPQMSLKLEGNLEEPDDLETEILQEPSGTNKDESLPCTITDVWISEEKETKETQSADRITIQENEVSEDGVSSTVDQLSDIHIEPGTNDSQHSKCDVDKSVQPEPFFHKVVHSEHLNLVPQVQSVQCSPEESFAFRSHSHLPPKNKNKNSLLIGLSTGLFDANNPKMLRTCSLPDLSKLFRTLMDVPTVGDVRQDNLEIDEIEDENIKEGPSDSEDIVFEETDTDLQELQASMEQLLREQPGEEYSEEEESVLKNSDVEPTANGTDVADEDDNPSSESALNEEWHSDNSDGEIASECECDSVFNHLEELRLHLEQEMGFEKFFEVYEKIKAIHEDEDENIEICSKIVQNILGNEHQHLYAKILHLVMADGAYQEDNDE

Block 1 — technique: RNAcompete; form: RNA; matrix: in vitro; concentration: 20 nM; notes: 7-mer, probes averaged, single round; relative to: mean of 7-mers; reading: higher = stronger binding
Target: PABPC1L2, full length, GST fusion (mouse, UniProt A0ABA7IW68)
Residues (chain): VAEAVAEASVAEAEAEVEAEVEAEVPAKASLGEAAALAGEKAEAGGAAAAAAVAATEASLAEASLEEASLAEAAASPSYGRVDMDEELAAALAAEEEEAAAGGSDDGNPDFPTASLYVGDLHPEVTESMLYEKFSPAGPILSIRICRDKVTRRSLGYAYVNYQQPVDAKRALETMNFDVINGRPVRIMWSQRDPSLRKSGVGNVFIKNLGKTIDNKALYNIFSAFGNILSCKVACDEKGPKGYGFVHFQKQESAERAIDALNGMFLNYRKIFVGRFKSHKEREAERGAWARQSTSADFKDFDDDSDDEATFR
Oligonucleotide	7-mer Z-score
GUGGGUU	-0.101
GAUACCA	-0.0645
AGAGGCA	0.216
AAGAUCC	0.282
CGUAUAU	-0.237
AGCUGAC	-0.0409
UGCGUGA	-0.253
CCACAAA	0.883

Block 2 — concentration: 1 µM
SMILES: CC1=C(C#N)[C@@H](c2ccc3[nH]nc(C)c3c2)C(C#N)=C(c2ccc(Cl)cc2)N1
target	effect on	technique	remaining binding
Tyrosine-protein kinase ABL1, phosphorylated (ABL1, Homo sapiens, UniProt P00519, F317I)	binding	–	100%
Mitogen-activated protein kinase 6 (MAPK6, Homo sapiens, UniProt Q16659)	cell-free assay	competition with immobilised ligand	100%
Cyclin-dependent kinase 9 (CDK9, Homo sapiens, UniProt P50750)	cell-free assay	competition with immobilised ligand	96.9%
Serine/threonine-protein kinase PRP4 homolog (PRPF4B, Homo sapiens, UniProt Q13523)	cell-free assay	competition with immobilised ligand	100%
Cyclin-dependent kinase 4 (CDK4, Homo sapiens, UniProt P11802)	cell-free assay	competition with immobilised ligand	78.8%
Tyrosine-protein kinase ABL1, non-phosphorylated (ABL1, Homo sapiens, UniProt P00519, T315I)	cell-free assay	competition with immobilised ligand	100%

Block 3 — technique: EMSA with sequencing; form: double-stranded DNA, one strand shown; matrix: in vitro; concentration: 10 and 20 nM; relative to: negative control set to 0; reading: higher = stronger binding
Target: Hepatocyte nuclear factor 3-alpha (Foxa1, Mus musculus, UniProt P35582, residues 1-468, full length assumed)
Notes: whole designed probe, mean of two concentrations, ends assumed
Shared flanks, not repeated: GTGAGCGGTGCCCATTGATGGGGAAC … TTTCACTGGGATCGTGGGGAC
Construct (chain): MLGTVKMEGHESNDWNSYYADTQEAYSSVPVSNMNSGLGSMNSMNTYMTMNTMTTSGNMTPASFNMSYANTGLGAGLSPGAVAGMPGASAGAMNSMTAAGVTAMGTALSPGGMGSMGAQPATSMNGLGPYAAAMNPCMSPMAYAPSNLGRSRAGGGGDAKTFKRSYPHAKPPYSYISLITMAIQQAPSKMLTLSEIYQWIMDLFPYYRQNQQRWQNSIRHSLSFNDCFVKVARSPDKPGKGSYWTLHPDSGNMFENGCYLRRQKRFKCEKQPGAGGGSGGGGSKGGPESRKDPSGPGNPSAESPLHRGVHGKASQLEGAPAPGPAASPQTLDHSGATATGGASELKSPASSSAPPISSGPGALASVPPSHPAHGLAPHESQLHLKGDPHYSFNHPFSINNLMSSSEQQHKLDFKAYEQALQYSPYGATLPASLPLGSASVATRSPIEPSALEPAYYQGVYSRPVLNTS
Oligonucleotide	normalised bound fraction [ratio]
ATACAGCCTAGAACTCCTGGGCTCAAAAGATCCTCCCACCTCAGCCTCCTGAGTAGCTAGGACTACAGAGGGGGATGCCAACATGTGTGGCAATATTTACTTATTTATTTAGAAAAGAGGTCTCGCTTTGTTGCCCAGGCTAGTGTGCAGTGGCGCAATCTTGGCTCACTGCAACCTCTTCCTCCCAAGTTCA	0.397
AAGAATTTATACATATGCTTTTCAATATCTGCCCTATTTTTTCTTTTGTATTTAAAAAAAATAAAATTCTAAAGAGAGTAAAAATGTACAATGTAATCTTGTTGGTACAAAGAAGCTGAGAAGAGGATTTATTTTATATGTTATGAAGTATGAAATTTAGATATATAAGTAAGGTCTTGGAGAGAAGTTGTAC	0.00479
TCTCTTTTAAAAATAGTGTTGGTGATATTTTAATTTTTTTTCCAACCAGTTTATATTTTACCAAACGCTTTTCCAAAGGCTGGACATACAATGTAATCTAGAAGGTGGAAATGTTACCCAGAGATGTCTAGCTTGTTGCTGAACTACAAATTTATTATTTAGAGGAAAGTTTACACTAGACATGTTGTCCAGA	0.0911
CTGCTTTATTAGTTACATGAGTTGGGCAAAACCTTTTGGAATAGACCAGTGTCACCAAGACAACAGGACGGTTATAGAAAGGCAGAAAAACAATGTAAACAAACATTTTATAAGCATAAATAATAATAGTTATTCTTCTATATACATTCAGTGTCTCTAAGCAGATCCAAAGATTTGCCAAGTTTTAATGAGA	0.467
ATCTTCCCCCTCTTCCTTGCCCCACCAGCTCACCTACGGGGGTTATTTGCACAAAGGAAAATAAATAAAGCCGGCATTCGTTAACGCAGTTCTGGCGCAAACTGCTGTTTGCTCTGGATGAATCATGGTCCTTTGGCGAGGCGTGGCTCCGGGAGAGCAAAGCACCGTGTCAGGGCCATGATCCGGGGTGGCC	0.382

Block 4 — effect on: enzyme activity; mode: inhibitor; concentration: 0.5 µM; relative to: control
Compound: CCCC(=O)Oc1ccc2[nH]c(C(=O)c3cc4ccccc4[nH]3)cc2c1
target	remaining activity
Ephrin type-A receptor 3 (EPHA3, Homo sapiens, UniProt P29320)	96.8%
Wee1-like protein kinase (WEE1, Homo sapiens, UniProt P30291)	85.8%
Angiopoietin-1 receptor (TEK, Homo sapiens, UniProt Q02763)	100%
Fibroblast growth factor receptor 3 (FGFR3, Homo sapiens, UniProt P22607)	95.2%
Serine/threonine-protein kinase Nek1 (NEK1, Homo sapiens, UniProt Q96PY6)	94.3%
Casein kinase I isoform gamma-2 (CSNK1G2, Homo sapiens, UniProt P78368)	95.5%
Tyrosine-protein kinase Mer (MERTK, Homo sapiens, UniProt Q12866)	96.7%
Activin receptor type-1B (ACVR1B, Homo sapiens, UniProt P36896)	98.9%
Serine/threonine-protein kinase ULK2 (ULK2, Homo sapiens, UniProt Q8IYT8)	98.3%
Tyrosine-protein kinase ABL2 (ABL2, Homo sapiens, UniProt P42684)	96.3%
Glycogen synthase kinase-3 beta (GSK3B, Homo sapiens, UniProt P49841)	94%
Serine/threonine-protein kinase TBK1 (TBK1, Homo sapiens, UniProt Q9UHD2)	119%
Dual specificity mitogen-activated protein kinase kinase 2 (MAP2K2, Homo sapiens, UniProt P36507)	98.7%
Mitogen-activated protein kinase kinase kinase 14 (MAP3K14, Homo sapiens, UniProt Q99558)	109%

Repeated from above (block 4):
target	remaining activity
Tyrosine-protein kinase Mer (MERTK, Homo sapiens, UniProt Q12866)	96.7%
Activin receptor type-1B (ACVR1B, Homo sapiens, UniProt P36896)	98.9%
Serine/threonine-protein kinase ULK2 (ULK2, Homo sapiens, UniProt Q8IYT8)	98.3%
